Results of several laboratories.
Lines come from different studies, so protocols differ.
Organism: Escherichia coli

For CC[C@H](C)[C@H](NC(=O)[C@@H](CCCNC(=N)N)NC(=O)[C@H](CCCNC(=N)N)NC(=O)[C@@H]1CCCN1C(=O)[C@@H]1CCCN1C(=O)[C@H](CCCNC(=N)N)NC(=O)[C@@H]1CCCN1C(=O)[C@H](CCCNC(=N)N)NC(=O)[C@@H]1CCCN1C(=O)[C@H](CC(C)C)NC(=O)[C@H](Cc1ccc(O)cc1)NC(=O)[C@H](Cc1ccc(O)cc1)NC(=O)[C@@H]1CCCN1C(=O)[C@H](CCCCN)NC(=O)[C@H](CC(=O)O)NC(=O)[C@@H](N)C(C)C)C(=O)N[C@@H](Cc1ccc(O)cc1)C(=O)N[C@@H](CC(N)=O)C(=O)N[C@H](CCCNC(=N)N)C(N)=O, the MIC was 16 µg/mL (broth microdilution; BW25113; 18 h, 37 °C, 25% MHB2).
For C#CCOc1ccc(CN[C@@]2(C)C[C@H](O[C@H]3[C@H](Oc4c5cc6cc4Oc4ccc(cc4Cl)[C@@H](O)[C@@H](NC(=O)[C@@H](CC(C)C)NC)C(=O)N[C@@H](CC(N)=O)C(=O)N[C@H]6C(=O)N[C@H]4C(=O)N[C@H](C(=O)N[C@H](C(=O)O)c6cc(O)cc(O)c6-c6cc4ccc6O)[C@H](O)c4ccc(c(Cl)c4)O5)O[C@H](CO)[C@@H](O)[C@@H]3O)O[C@@H](C)[C@H]2O)cc1OC, the MIC was > 128 µg/mL (broth microdilution; ATCC 25922; 18 to 20 h).
CC1(C)[C@H](NC(=O)/C(=N\OCc2c(Cl)cccc2Cl)c2nsc(N)n2)C(=O)N1OS(=O)(=O)O gave an MIC of 16 µg/mL (agar dilution; 08-85, mcr-1).
CCn1ccn(CC)c1=[Se] gave an MIC of > 40 µM (broth microdilution; carbapenem-resistant BAA-2140; 24 h).
With CC[C@H](C)[C@H](NC(=O)CNC(=O)[C@H](CC(=O)O)NC(=O)[C@H](CCCNC(=N)N)NC(=O)[C@@H](NC(=O)[C@H](Cc1c[nH]cn1)NC(=O)[C@H](CCC(N)=O)NC(=O)CNC(=O)[C@@H](NC(=O)[C@H](CCCNC(=N)N)NC(=O)[C@H](CCC(=O)O)NC(=O)[C@@H](NC(=O)[C@H](CCCCN)NC(=O)[C@H](CCCCN)NC(=O)[C@H](Cc1ccccc1)NC(=O)[C@@H](NC(=O)[C@H](CCCCN)NC(=O)[C@H](Cc1c[nH]c2ccccc12)NC(=O)[C@@H](N)CCCCN)[C@@H](C)CC)[C@@H](C)CC)C(C)C)C(C)C)C(=O)N[C@H](C(=O)N[C@@H](CCCCN)C(=O)N[C@@H](C)C(=O)NCC(=O)N[C@@H](CO)C(=O)N[C@@H](C)C(=O)N[C@H](C(=O)N[C@@H](CCC(N)=O)C(=O)N[C@H](C(=O)N[C@H](C(=O)NCC(=O)N[C@@H](CCC(N)=O)C(=O)N[C@@H](C)C(=O)N[C@@H](C)C(=O)N[C@@H](C)C(=O)N[C@H](C(=O)N[C@@H](C)C(=O)N[C@@H](CCCCN)C(N)=O)[C@@H](C)CC)C(C)C)C(C)C)C(C)C)[C@@H](C)CC the MIC was ≤ 0.062 µM (bacterial growth, broth microdilution; cation-adjusted Mueller Hinton broth; 18 h, 37 °C).
c1ccc2c(c1)nc(CNCC13CC4CC(CC(C4)C1)C3)n2CC1CCCCC1 has an MIC of > 128 µg/mL (ATCC 25922).
CC[C@H](C)[C@H](NC(=O)[C@@H](CCCNC(=N)N)NC(=O)[C@H](CCCNC(=N)N)NC(=O)[C@H](Cc1c[nH]cn1)NC(=O)[C@H](Cc1c[nH]c2ccccc12)NC(=O)[C@H](CCCNC(=N)N)NC(=O)[C@@H]1CCCN1C(=O)[C@H](CCCNC(=N)N)NC(=O)[C@@H]1CCCN1C(=O)[C@H](CC(C)C)NC(=O)[C@H](Cc1ccc(O)cc1)NC(=O)[C@@H]1CCCN1C(=O)[C@@H]1CCCN1C(=O)[C@H](CCCCN)NC(=O)[C@H](CC(=O)O)NC(=O)[C@@H](N)C(C)C)C(=O)N[C@@H](Cc1ccc(O)cc1)C(=O)N[C@@H](CC(N)=O)C(=O)N[C@H](CCCNC(=N)N)C(N)=O has an MIC of 16 µg/mL (broth microdilution; ATCC 25922; 18 h, 37 °C, 25% MHB2).
For CC1(C)[C@H](NC(=O)/C(=N\OCc2c(Cl)cccc2Cl)c2csc(N)n2)C(=O)N1OS(=O)(=O)O, the MIC was 8 µg/mL (agar dilution; 08-85, mcr-1).
CC[C@H](C)[C@H](NC(=O)[C@@H](NC(=O)[C@H](CCCCN)NC(=O)[C@H](CCCCN)NC(=O)[C@@H](NC(=O)[C@H](Cc1c[nH]c2ccccc12)NC(=O)[C@H](CCCCN)NC(=O)[C@@H](NC(=O)[C@H](CC(C)C)NC(=O)[C@H](CCCCN)NC(=O)[C@H](CCCCN)NC(=O)[C@@H](N)C(C)C)[C@@H](C)CC)[C@@H](C)CC)C(C)C)C(N)=O gave an MIC of 32 µM (24 h, 37 °C, Mueller-Hinton broth, no additive).
CC[C@H](C)[C@H](NC(=O)[C@@H](CCC(=O)O)NC(=O)[C@H](CC(C)C)NC(=O)c1cccc(C(=O)O)n1)C(=O)N[C@H]1CCCCNC(=O)[C@H](CC(N)=O)NC(=O)[C@@H](CC(=O)O)NC(=O)[C@H](Cc2c[nH]cn2)NC(=O)[C@@H](Cc2ccccc2)NC(=O)[C@H]([C@@H](C)CC)NC(=O)[C@@H](CCCN)NC1=O has an MIC of > 64 µg/mL (ATCC 25922; 18 h, 37 °C, 0.3 mM ZnSO4 LB).
CC[C@H](C)[C@H](NC(=O)[C@H](CCCCN)NC(=O)[C@H](CCCNC(=N)N)NC(=O)[C@H](CCCCN)NC(=O)[C@H](CC(C)C)NC(=O)[C@H](Cc1ccccc1)NC(=O)[C@H](CCC(=O)O)NC(=O)[C@H](CCCCN)NC(=O)[C@@H](NC(=O)[C@@H](NC(=O)[C@H](CCC(=O)O)NC(=O)[C@H](C)NC(=O)CNC(=O)[C@@H](N)CCCNC(=N)N)[C@@H](C)O)C(C)C)C(=O)N[C@@H](CCCNC(=N)N)C(=O)N[C@@H](CCC(=O)O)C(=O)N[C@@H](CCCNC(=N)N)C(=O)NCC(=O)N[C@H](C(=O)N[C@@H](CCCCN)C(=O)N[C@@H](C)C(=O)N[C@H](C(=O)N[C@H](C(=O)N[C@@H](C)C(=O)N[C@@H](Cc1c[nH]c2ccccc12)C(=O)O)[C@@H](C)CC)C(C)C)[C@@H](C)O gave an MIC of 35.2 µg/mL (broth microdilution; K88, Mueller-Hinton broth; 37 °C).
For CC[C@H](C)[C@H](NC(=O)[C@@H](CCCNC(=N)N)NC(=O)[C@H](CCCNC(=N)N)NC(=O)[C@H](CCCCN)NC(=O)[C@H](Cc1c[nH]c2ccccc12)NC(=O)[C@H](CCCNC(=N)N)NC(=O)[C@@H]1CCCN1C(=O)[C@H](CCCNC(=N)N)NC(=O)[C@@H]1CCCN1C(=O)[C@H](CC(C)C)NC(=O)[C@H](Cc1ccc(O)cc1)NC(=O)[C@@H]1CCCN1C(=O)[C@@H]1CCCN1C(=O)[C@H](CCCCN)NC(=O)[C@H](CC(=O)O)NC(=O)[C@@H](N)C(C)C)C(=O)N[C@@H](Cc1ccc(O)cc1)C(=O)N[C@@H](CC(N)=O)C(=O)N[C@H](CCCNC(=N)N)C(N)=O, the MIC was 8 µg/mL (broth microdilution; MC4100; 18 h, 37 °C, 25% MHB2).
For CN[C@@H]1[C@H](O)[C@H](NC)[C@H]2O[C@]3(O)[C@H](O[C@@H]2[C@H]1O)O[C@H](C)C[C@H]3NC(=O)Cc1ccccc1, the MIC was > 200 µg/mL (microbial growth, broth dilution; K12).
With CO[C@@H](C(N)=O)[C@H](NC(=O)c1ccc(NC(=O)[C@@H](N)Cc2ccccc2)cc1)C(=O)Nc1ccc(C(=O)Nc2ccc(C(=O)Nc3ccc(C(=O)O)c(O)c3OC(C)C)c(O)c2OC(C)C)cc1 the MIC was 0.03 µg/mL.
CC[C@H](C)[C@H](NC(=O)[C@@H](CCCNC(=N)N)NC(=O)[C@H](CCCNC(=N)N)NC(=O)[C@@H]1CCCN1C(=O)[C@@H]1CCCN1C(=O)[C@H](CCCNC(=N)N)NC(=O)[C@@H]1CCCN1C(=O)[C@H](CCCNC(=N)N)NC(=O)[C@@H]1CCCN1C(=O)[C@H](CC(C)C)NC(=O)[C@H](Cc1ccc(O)cc1)NC(=O)[C@@H]1CCCN1C(=O)[C@H](Cc1ccccc1)NC(=O)[C@H](CCCCN)NC(=O)[C@H](CC(=O)O)NC(=O)[C@@H](N)C(C)C)C(=O)N[C@@H](Cc1ccc(O)cc1)C(=O)N[C@@H](CC(N)=O)C(=O)N[C@H](CCCNC(=N)N)C(N)=O gave an MIC of 16 µg/mL (broth microdilution; MC4100; 18 h, 37 °C, 25% MHB2).
The MIC of CC[C@H](C)[C@H](NC(=O)[C@@H](NC(=O)[C@H](CCCCN)NC(=O)[C@H](CCCCN)NC(=O)[C@@H](NC(=O)[C@H](Cc1c[nH]c2ccccc12)NC(=O)[C@H](CCCCN)NC(=O)[C@H](Cc1c[nH]c2ccccc12)NC(=O)[C@H](CC(C)C)NC(=O)[C@H](CCCCN)NC(=O)[C@H](CCCCN)NC(=O)[C@@H](N)C(C)C)[C@@H](C)CC)C(C)C)C(N)=O is reported as 16 µM (24 h, 37 °C, Mueller-Hinton broth, KCl 4.5 mM).
The MIC of CC[C@H](C)[C@H](NC(=O)[C@@H](CCCNC(=N)N)NC(=O)[C@H](CCCNC(=N)N)NC(=O)[C@@H]1CCCN1C(=O)[C@@H]1CCCN1C(=O)[C@H](CCCNC(=N)N)NC(=O)[C@@H]1CCCN1C(=O)[C@H](CCCNC(=N)N)NC(=O)[C@@H]1CCCN1C(=O)[C@H](Cc1ccccc1)NC(=O)[C@H](Cc1ccc(O)cc1)NC(=O)[C@@H]1CCCN1C(=O)[C@@H]1CCCN1C(=O)[C@H](CCCCN)NC(=O)[C@H](CC(=O)O)NC(=O)[C@@H](N)C(C)C)C(=O)N[C@@H](Cc1ccc(O)cc1)C(=O)N[C@@H](CC(N)=O)C(=O)N[C@H](CCCNC(=N)N)C(N)=O is reported as 16 µg/mL (broth microdilution; BW25113; 18 h, 37 °C, 25% MHB2).
CC(C)C[C@@H](NC(=O)[C@@H](CCCNC(=N)N)NC(=O)[C@H](N)CCCNC(=N)N)C(=O)N[C@H](CC(C)C)C(=O)N[C@H](CCCNC(=N)N)C(=O)N[C@H](CCCCN)C(=O)N[C@H](CC(C)C)C(=O)N[C@H](CCCCN)C(=O)NCC(=O)N[C@H](CCCCN)C(=O)N[C@H](CCCCN)C(=O)N[C@H](CC(C)C)C(=O)N[C@H](Cc1ccc(O)cc1)C(=O)N[C@H](CC(C)C)C(=O)N[C@H](Cc1ccc(O)cc1)C(=O)N[C@H](Cc1ccccc1)C(=O)N[C@H](CCCCN)C(=O)N[C@H](CC(C)C)C(=O)N[C@H](CCC(N)=O)C(=O)N[C@H](CC(C)C)C(=O)N[C@H](CC(C)C)C(=O)N[C@H](CCCCN)C(=O)N[C@H](CCCCN)C(N)=O has an MIC of 4 µM (broth microdilution; KCTC 1682, Mueller-Hinton broth; no added salt).
For CCCCCCCC(=O)N[C@@H](CCN)C(=O)N[C@H](C(=O)N[C@@H](CCN)C(=O)N[C@H]1CCNC(=O)[C@H]([C@@H](C)O)NC(=O)[C@H](CCN)NC(=O)[C@H](CCN)NC(=O)[C@H](Cc2ccc(F)cc2)NC(=O)[C@@H](CC(C)C)NC(=O)[C@H](CCN)NC1=O)[C@@H](C)O, the MIC was 2 to 4 µg/mL (broth microdilution; mcr-1, colistin-resistant).
The MIC of CSCC[C@H](NC=O)C(=O)N[C@@H](CCCNC(=N)N)C(=O)N[C@H](C(=O)NCC(=O)N[C@@H](CC(N)=O)C(=O)N[C@@H](C)C(=O)N[C@@H](CC(N)=O)C(=O)NCC(=O)N1CCN(c2cc3c(cc2F)c(=O)c(C(=O)O)cn3C2CC2)CC1)[C@@H](C)O is reported as 6.24 µM (multistep resistance selection; K-12 MG1655; 7 days after day 7).

Some of these lines once more:
The MIC of CC[C@H](C)[C@H](NC(=O)[C@@H](CCCNC(=N)N)NC(=O)[C@H](CCCNC(=N)N)NC(=O)[C@@H]1CCCN1C(=O)[C@@H]1CCCN1C(=O)[C@H](CCCNC(=N)N)NC(=O)[C@@H]1CCCN1C(=O)[C@H](CCCNC(=N)N)NC(=O)[C@@H]1CCCN1C(=O)[C@H](Cc1ccccc1)NC(=O)[C@H](Cc1ccc(O)cc1)NC(=O)[C@@H]1CCCN1C(=O)[C@@H]1CCCN1C(=O)[C@H](CCCCN)NC(=O)[C@H](CC(=O)O)NC(=O)[C@@H](N)C(C)C)C(=O)N[C@@H](Cc1ccc(O)cc1)C(=O)N[C@@H](CC(N)=O)C(=O)N[C@H](CCCNC(=N)N)C(N)=O is reported as 16 µg/mL (broth microdilution; BW25113; 18 h, 37 °C, 25% MHB2).
CC(C)C[C@@H](NC(=O)[C@@H](CCCNC(=N)N)NC(=O)[C@H](N)CCCNC(=N)N)C(=O)N[C@H](CC(C)C)C(=O)N[C@H](CCCNC(=N)N)C(=O)N[C@H](CCCCN)C(=O)N[C@H](CC(C)C)C(=O)N[C@H](CCCCN)C(=O)NCC(=O)N[C@H](CCCCN)C(=O)N[C@H](CCCCN)C(=O)N[C@H](CC(C)C)C(=O)N[C@H](Cc1ccc(O)cc1)C(=O)N[C@H](CC(C)C)C(=O)N[C@H](Cc1ccc(O)cc1)C(=O)N[C@H](Cc1ccccc1)C(=O)N[C@H](CCCCN)C(=O)N[C@H](CC(C)C)C(=O)N[C@H](CCC(N)=O)C(=O)N[C@H](CC(C)C)C(=O)N[C@H](CC(C)C)C(=O)N[C@H](CCCCN)C(=O)N[C@H](CCCCN)C(N)=O has an MIC of 4 µM (broth microdilution; KCTC 1682, Mueller-Hinton broth; no added salt).
